Results pooled from the literature.
Each numbered part is a random draw from the data of one study; scales do not carry over between parts. Substitutions count along the parent as printed.

Block 1
Target: Prothrombin, mature alpha-thrombin (F2, Homo sapiens, UniProt P00734)
Technique: aptamer microarray, sandwich
Molecule type: DNA with 2'F-ANA
Matrix: in vitro
Concentration: 200 nM
Setting: whole 15-mer aptamer, many near background
Together with: Cy3 exosite-II aptamer, 400 nM
Direction: higher = stronger binding
Measurement: mean fluorescence intensity
Oligonucleotide: GGTTGGTGTGGTTGG
2'F-ANA at 3 4 5 6 9 10 12: 62.6 a.u.
2'F-ANA at 1 2 5 6 7 9 11 13: 55.2 a.u.
2'F-ANA at 2 6 8 10 11 12 13: 119 a.u.
2'F-ANA at 1 4 7 8 12 13 15: 276 a.u.
2'F-ANA at 2 5 6 7 8 9 12 13 14: 48.2 a.u.
2'F-ANA at 5 6 7 9 12 13: 93.3 a.u.
2'F-ANA at 3 5 6 7 8 11 12 14 15: 60.5 a.u.
2'F-ANA at 1 3 4 7 8 11 14: 82 a.u.
2'F-ANA at 5 6 7 11 12 14 15: 47.7 a.u.
2'F-ANA at 1 2 5 10 13 15: 51.4 a.u.
2'F-ANA at 1 9 15: 259 a.u.
2'F-ANA at 2 3 5 7 8 10 11 12 14 15: 343 a.u.
2'F-ANA at 2 3 5 6 8 9 11 12 15: 154 a.u.
2'F-ANA at 1 2 3 4 5 8 9 11 13 14 15: 50.7 a.u.
2'F-ANA at 1 2 9 10 11 14: 65.6 a.u.
2'F-ANA at 2 4 10 12 13 14: 71.6 a.u.
2'F-ANA at 2 4 7 10 11 13 14 15: 62 a.u.
2'F-ANA at 1 3 4 6 7 8 9 11 12 13 14 15: 77.5 a.u.

Block 2
Target: Histone acetyltransferase KAT6A, winged helix 2, GST fusion (KAT6A, Homo sapiens, UniProt Q92794, residues 85-181)
Technique: protein binding microarray
Molecule type: double-stranded DNA, one strand shown
Matrix: in vitro
Concentration: not given
Setting: 8-mer, flanks averaged, mean of 2 arrays, mostly near background
Reference: not given
Direction: higher = stronger binding
Measurement: E-score
Residues (chain): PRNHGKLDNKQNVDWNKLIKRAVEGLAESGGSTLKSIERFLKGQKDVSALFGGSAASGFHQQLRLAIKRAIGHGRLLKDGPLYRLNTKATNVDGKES
AGCATAAT: -0.0654
CATTCTTC: -0.102
ACTTCAGG: -0.101
CTCTTTAC: -0.0956
GGCTCTGA: 0.1
ACACTTTG: -0.103
TACAGTGA: -0.103
AGTAGTAG: -0.188
GCTACAAA: 0.0795
ACCAGTCT: -0.0561
AAACACAC: 0.114
AATGTCGT: -0.0481
AACTGTGC: -0.00226
AGACGTGA: -0.154
CACCATAA: -0.107
CTCCATCA: 0.144
GAGAGGAC: -0.0901
CCCCAGTC: -0.208
ATAAGTGA: -0.0933
CCACATGA: -0.207
AGGTGCGC: -0.00507
AGTAATAA: -0.0217

Block 3
Target: Interferon regulatory factor 3, full length, phosphomimetic (IRF3, Homo sapiens, UniProt Q14653, residues 1-427, S386D/S396D/S398D/S402D/T404D/S405D)
Technique: protein-binding microarray
Molecule type: double-stranded DNA, one strand shown
Matrix: in vitro
Concentration: 2540 nM top
Setting: 60-bp whole probe
Together with: salmon DNA 0.4 mg/ml
Reference: random background probes
Direction: higher = stronger binding
Measurement: fitted relative affinity
Shared flanks, not repeated: GCCTAGCAC … GTCTTGATTCGCTTGACGCTGCTG
Target sequence (chain): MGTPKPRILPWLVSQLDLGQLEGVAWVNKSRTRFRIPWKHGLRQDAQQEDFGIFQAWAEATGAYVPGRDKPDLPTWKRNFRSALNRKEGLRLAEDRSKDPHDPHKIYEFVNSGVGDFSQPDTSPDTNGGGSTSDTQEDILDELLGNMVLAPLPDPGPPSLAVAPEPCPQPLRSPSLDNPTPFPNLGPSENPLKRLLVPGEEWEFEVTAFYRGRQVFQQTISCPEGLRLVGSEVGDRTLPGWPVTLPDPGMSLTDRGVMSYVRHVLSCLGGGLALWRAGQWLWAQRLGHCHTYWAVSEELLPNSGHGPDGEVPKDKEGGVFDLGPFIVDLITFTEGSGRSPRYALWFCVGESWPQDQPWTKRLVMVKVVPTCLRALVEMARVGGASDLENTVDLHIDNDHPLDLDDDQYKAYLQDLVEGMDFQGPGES
GACCATTTCAGTTCCGAGACGTGCTAG: 3.18 z-score
TTAGGTCTCGGTCTCCGTTAGTGCTAG: 1.15 z-score
TTAGGACTGCTACTGCGTTAGTGCTAG: -0.793 z-score
TTGTGTCAACTTTCTCTGCTCGTGCTA: 0.831 z-score
TTAGGTTTCGACTCTGGGTTAGTGCTA: 3.15 z-score
GACGGTCTTGGTTTCGGGACGTGCTAG: 2.44 z-score
TTAGATATCGAGTTTCGATTAGTGCTA: 2.33 z-score
GACGGTTTCGGGACTGGGAACGTGCTA: 4.91 z-score
GACGGTCTCGGTTTCGGGATGTGCTAG: 4.2 z-score
GACGGTCTCCTTATCCTTACGTGCTAG: 2.92 z-score
GACGGTATCGACTTTCGGAACGTGCTA: 2.5 z-score
TTAGGTATCGGGTTTCGATTAGTGCTA: 3.25 z-score
CTGATTTTGCTTTCATTTATGTGCTAG: 2.22 z-score
GACGGTACCGGTATCGGGACGTGCTAG: 2.27 z-score
TTAGGACTGCTTATCCTTTTGTGCTAG: 0.49 z-score

Block 4
Target: ABI1, truncated, D143A, DHFR fusion (Arabidopsis thaliana)
Technique: DHFR PCA, deep sequencing
Matrix: yeast
Setting: methotrexate growth selection, single substitutions
Together with: (+)-ABA 17 µM
Reference: wild-type fitted maximum
Direction: higher = stronger binding
Measurement: relative binding score
Starting sequence: PYL1, truncated, DHFR fusion (Arabidopsis thaliana); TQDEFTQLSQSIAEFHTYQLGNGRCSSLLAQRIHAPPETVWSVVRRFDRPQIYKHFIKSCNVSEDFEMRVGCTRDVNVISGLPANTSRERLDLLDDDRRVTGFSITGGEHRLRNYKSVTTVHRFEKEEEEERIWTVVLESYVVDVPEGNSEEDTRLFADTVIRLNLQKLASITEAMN
Y18K: 69.3%
K126V: 92.2%
S27D: 69.9%
R88E: 78%
K54F: -14%
W134V: 94.3%
R132N: 98%
D92W: 15.8%
G81V: 5.18%
E67N: 80.6%
S104A: 29.8%
I133Y: 96.3%
H34T: 62.2%
F157G: -4.92%
D92T: 50.3%
E89I: -0.522%
P36L: 67.2%
I105P: 3.88%
R45I: -9.75%
F15D: 5.51%
R49G: 27.3%
G81E: 3.87%

Block 5
Target: Centromere-binding protein 1, full length, N-terminal tag (CBF1, Saccharomyces cerevisiae, UniProt P17106, residues 1-351)
Chain of UniProt P17106 (whole entry, looked up): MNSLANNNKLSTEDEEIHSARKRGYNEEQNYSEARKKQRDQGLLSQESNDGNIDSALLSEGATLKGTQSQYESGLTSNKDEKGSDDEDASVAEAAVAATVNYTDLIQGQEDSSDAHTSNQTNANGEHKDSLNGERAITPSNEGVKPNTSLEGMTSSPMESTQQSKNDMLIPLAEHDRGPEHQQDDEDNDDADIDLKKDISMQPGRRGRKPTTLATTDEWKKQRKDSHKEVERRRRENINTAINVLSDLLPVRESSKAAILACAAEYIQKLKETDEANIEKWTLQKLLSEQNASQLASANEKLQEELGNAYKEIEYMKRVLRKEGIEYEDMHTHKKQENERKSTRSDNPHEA
Technique: protein-binding microarray
Molecule type: double-stranded DNA, one strand shown
Matrix: in vitro
Concentration: 0.8 µM
Setting: whole 60-bp probe, no competitor
Direction: higher = stronger binding
Measurement: fluorescence intensity
Shared flanks, not repeated: … GTCTTGATTCGCTTGACGCTGCTG
GAAAGATAATTTTGTCACGTTTGTTCTGGTGGGTAG: 1400 a.u.
GAAATGTAAGTTATTAACACCACCTTCTAGTTGTAG: 504 a.u.
GAATCCTTTTTTCATCTGATTATATGCTTATATTAG: 520 a.u.
CTAAAAGTGAGTAGGAACGTGTATGTTTGTGTATTC: 512 a.u.
GAAGCACCAGCAAGTAGAGTCACGTACCCCCCATAG: 674 a.u.
GAAGACTATTTTGACCATGTGCTCAACTAGAAGTAG: 1780 a.u.
CTAACAAACTTCGGGCACGTCTTTTAAATAGGTTTC: 541 a.u.
CTATAAAAGCATATATACGTGATTCATATGAAGTTC: 642 a.u.
CTAAAATGGCATAATCACGTAGCAACCTGGAAATTC: 605 a.u.
CTACTGTGATTGGCGCACGGGTGTGGAGGTGTCTTC: 581 a.u.
GAACTTCTTTTAGTGCACGTACTTTTTGGACTGTAG: 558 a.u.
CTACAAACAGTACCTCACGTCTTTTTTTTGAATTTC: 537 a.u.
TGTACGAAGCTATGTACCGTGCCTATAGTAGTTAGG: 528 a.u.
GAACCACGTCATGCCCACGTTTCGTTTCCATGCTAG: 692 a.u.
GAAGAGCGAAAGATGAACGTGTGCTTTCGCCTGTAG: 561 a.u.
GAAGGTGAAGTATAAGACGTGGTTGCAGCATCCTAG: 497 a.u.

Block 6
Target: CCNA2, cyclin fold, Cln2 fusion (human)
Technique: yeast growth competition, sequencing
Matrix: yeast
Setting: strong parent motif
Reference: not given
Direction: higher = stronger binding
Measurement: normalised enrichment score
Starting sequence: DBF4B docking peptide (human); LGYLYLLLTQSLW
LGYLYALLTQSLW [L6A]: 1.09
LGYLYLLLTQSAW [L12A]: 1.21
LGYLYLLLTQSLA [W13A]: 1.08
LGYLYLLLAQSLW [T9A]: 1.73
LAYLYLLLTQSLW [G2A]: 0.969
LGYLYLLATQSLW [L8A]: 1.8
LGYLYLLLTQALW [S11A]: 1.38

Mixed results
PhoQ, residues 284 288 289 292 302 303 QWQEDG
fold induction (PhoP, residues 12 14 15 18 19 TPLRH (Escherichia coli, UniProt P23836); Sort-seq, measured: YFP reporter; E. coli; PhoQ-PhoP variant library, together with: 10 µM Mg2+; reference: high Mg2+ state, higher = stronger signaling): 0.757
